# Measured values pooled from the literature.
# ± marks the error that the study gave.
Compound,test,test system,setting,logD
CCOC(=O)C(CC)(CCCSCCOCCOCCN)NC(=O)c1ccc(C2CC2)c(Cc2ccc(F)cc2)n1 (racemic),,,,2.6
NS(=O)(=O)c1ccc(N/N=C2\C(=O)Nc3ccc(C(=O)NCCc4c[nH]cn4)cc32)cc1,,octanol/buffer,"67 µM, pH 7.4",1.41
CCC(=[NH+][Pt-2]1([Cl])[NH2+]CCC[NH2+]1)N(C)CCNc1c2ccccc2[nH+]c2ccccc12.O=[N+]([O-])[O-].O=[N+]([O-])[O-] (centres unmarked),shake-flask,1-octanol/water,pH 7,-1.97 ± 0.09
COc1cc(-c2nc3ccccc3s2)cc(CN2CCN(Cc3cc(-c4nc5ccccc5s4)cc(OC)c3O)CCN(C(C)C)CC2)c1O,fluorescence intensity,,,1.3 ± 0.03
C[C@@H](O)[C@H](NC(=O)c1ccc(C#CC#Cc2ccccc2)cc1)C(=O)NCC1(C)NC(=O)NC1=O (some centres unmarked),,octanol/buffer,pH 7.4,3.96
CCCCCCCC/C=C/CCCCCCCC(=O)[O][Pt-2]1([OH])([Cl])([NH+]=C(CC)N(C)CCNc2c3ccccc3[nH+]c3ccccc23)[NH2+]CCC[NH2+]1.O=[N+]([O-])[O-].O=[N+]([O-])[O-],shake-flask,1-octanol/0.9% NaCl,pH 5,0.98 ± 0.09
COC(=O)Nc1cc(C(=O)Nc2ccccc2)cc2ccc(C(=N)N)cc12.O=CO,,octanol/buffer,"67 µM, pH 7.4",3.4
COc1cc(-c2nc3ccccc3s2)cc(CN2CCN(CC(=O)O)CCN(Cc3cc(-c4nc5ccccc5s4)cc(OC)c3O)CC2)c1O,fluorescence intensity,,,0.89 ± 0.07
CC[C@H](C)[C@H](NC(=O)C[C@H](NC(=O)CN1CCN2CCN(CC1)CC(=O)[O][Al]([18F])[O]C(=O)C2)C(=O)O)C(=O)N[C@H]1CCc2cccc3c2N(C1=O)[C@H](C(=O)NCc1cn[nH]n1)C3,,1-octanol/PBS 0.1 M,pH 7.4,-1.58 ± 0.16
CCC(=[NH+][Pt-2]1([Cl])([O]C(=O)CC(C)C)([O]C(=O)CC(C)C)[NH2+]CCC[NH2+]1)N(C)CCNc1c2ccccc2[nH+]c2ccccc12.O=[N+]([O-])[O-].O=[N+]([O-])[O-],shake-flask,1-octanol/water,pH 7,-1.22 ± 0.08
COc1cccc(OC)c1-c1cc(C(=O)NC2(C(=O)O)C3CC4CC(C3)CC2C4)nn1-c1ccc(C(=O)N(C)CCOCCOCCN(C)C(=O)[C@H](CCCCNC(=O)[C@H](CC(C)C)NC(=O)C2OC2C(=O)O)NC(=O)CN2CCN(CC(=O)[O-])CCN(CC(=O)[O-])CCN(CC(=O)[O-])CC2)cc1C(C)C.[177Lu+3] (mixture of isomers),,n-octanol/buffer,"pH 7.4, 177Lu-labelled",-2.14
COc1cc(-c2nc3ccccc3s2)cc(CN2CCN(C)CCN(Cc3cc(-c4nc5ccccc5s4)cc(OC)c3O)CC2)c1O,fluorescence intensity,,,1.19 ± 0.05
O=C(c1ccccc1)N1CCCCC1,shake-flask,1-octanol/water,,1.7
COC(=O)Nc1cc(C(=O)Nc2ccc(CN)cc2)cc2ccc(C(=N)N)cc12.O=C(O)C(F)(F)F.O=C(O)C(F)(F)F,,octanol/buffer,"67 µM, pH 7.4",< -1.5
O=C(CN1CN(c2ccccc2)C2(CCN(C(=O)c3ccc4[nH]ncc4n3)CC2)C1=O)NCC(F)(F)F,,,pH 7.4,2.11
Cc1cccc(-c2ccc3nc(NC(=O)C4CCCCC4)nn3c2)c1,,,,3.86
CN1CCc2ccc(/C=C/c3ccc4cc(C(=N)N)ccc4c3)cc2C1C1CCCCC1.O=C(O)C(F)(F)F.O=C(O)C(F)(F)F (centres unmarked),,octanol/buffer,"67 µM, pH 7.4",2.16
O=c1[nH]cccc1[C@H](CO)Nc1nc(N2C[C@@H]3C[C@H]2CO3)c2cc(-c3ccccc3)sc2n1,chromatographic,,,3.5 ± 0.1
Cc1ccncc1.[Cl-].[Cl-].[Ru+2].c1cc(-c2ccc3cccnc3n2)nc(-c2ccc3cccnc3n2)c1.c1ccc2cc3nc4c5cccnc5c5ncccc5c4nc3cc2c1,,1-octanol/PBS,pH 7.4,-0.73 ± 0.007
COc1cccc(OC)c1-c1cc(C(=O)NC2(C(=O)O)C3CC4CC(C3)CC2C4)nn1-c1ccc(C(=O)N(C)CCCN(C)C(=O)[C@H](CCCCNC(=O)[C@H](CC(C)C)NC(=O)C2OC2C(=O)O)NC(=O)CN2CCN(CC(=O)[O-])CCN(CC(=O)[O-])CCN(CC(=O)[O-])CC2)cc1C(C)C.[177Lu+3] (mixture of isomers),,n-octanol/buffer,"pH 7.4, 177Lu-labelled",-2.05
CN1CCc2ccc(C3CC3c3ccc4cc(C(=N)N)ccc4c3)cc2C1C1CCC1.Cl.Cl (centres unmarked),,octanol/buffer,"67 µM, pH 7.4",0.81
O=C(CN1CN(c2ccccc2)C2(CCN(C(=O)c3cc4cn[nH]c4cn3)CC2)C1=O)NCC(F)(F)F,,,pH 7.4,2
CCCCCCCCCCCCCCCCCC(=O)[O][Pt-2]1([OH])([Cl])([NH+]=C(CC)N(C)CCNc2c3ccccc3[nH+]c3ccccc23)[NH2+]CCC[NH2+]1.O=[N+]([O-])[O-].O=[N+]([O-])[O-],shake-flask,1-octanol/0.9% NaCl,pH 5,1.2 ± 0.06
O=C(CN1CN(c2cccc(F)c2)C2(CCN(C(=O)c3cnc4[nH]ncc4c3)CC2)C1=O)NCC(F)(F)F,,,pH 7.4,2.34
COC/C=C/c1cc(C2CC2c2ccc3c(c2)C(C(C)C)N(C)CC3)cc2ccc(C(=N)N)cc12.O=C(O)C(F)(F)F.O=C(O)C(F)(F)F (centres unmarked),,octanol/buffer,"67 µM, pH 7.4",0.17
CC(C)(C)c1cc(-c2ccc3cccnc3n2)nc(-c2ccc3cccnc3n2)c1.COc1ccncc1.[Cl-].[Cl-].[Ru+2].c1ccc2cc3nc4c5cccnc5c5ncccc5c4nc3cc2c1,,1-octanol/PBS,pH 7.4,-0.32 ± 0.017
CC(C)C1=NCCc2ccc(NC(=O)c3cc(Br)c4cc(C(=N)N)ccc4c3)cc21.O=C(O)C(F)(F)F.O=C(O)C(F)(F)F,,octanol/buffer,"67 µM, pH 7.4",1.24
COc1ccc(CCC(C)N2CCc3cc(O[11CH3])c(OC)cc3C2)cc1 (racemic),shake-flask,n-octanol/phosphate buffer,pH 7.4,1.68 ± 0.02
CCOC(=O)C(CC)(CCCSCCOCCOCCOCCN)NC(=O)c1ccc(C2CC2)c(Cc2ccc(F)cc2)n1 (centres unmarked),,,,2.7
CCC(=[NH+][Pt-2]1([Cl])([O]C(C)=O)([O]C(C)=O)[NH2+]CCC[NH2+]1)N(C)CCNc1c2ccccc2[nH+]c2ccccc12.O=[N+]([O-])[O-].O=[N+]([O-])[O-],shake-flask,1-octanol/0.9% NaCl,pH 5,-1.18 ± 0.03
CN(CC(F)(F)F)C(=O)CN1CN(c2ccccc2)C2(CCN(C(=O)c3ccc4[nH]ncc4c3)CC2)C1=O,,,pH 7.4,2.66
CC1CN(C(C)CO)C(=O)c2cccc(N(C)C(=O)c3ccncc3)c2OC1CN(C)Cc1ccc(Oc2ccccc2)cc1 (centres unmarked),shake flask,1-octanol/phosphate buffer,pH 7.4,3.75

# For quick reference, copied from above:
Compound,test,test system,setting,logD
O=C(CN1CN(c2ccccc2)C2(CCN(C(=O)c3cc4cn[nH]c4cn3)CC2)C1=O)NCC(F)(F)F,,,pH 7.4,2
CCCCCCCCCCCCCCCCCC(=O)[O][Pt-2]1([OH])([Cl])([NH+]=C(CC)N(C)CCNc2c3ccccc3[nH+]c3ccccc23)[NH2+]CCC[NH2+]1.O=[N+]([O-])[O-].O=[N+]([O-])[O-],shake-flask,1-octanol/0.9% NaCl,pH 5,1.2 ± 0.06
O=C(CN1CN(c2cccc(F)c2)C2(CCN(C(=O)c3cnc4[nH]ncc4c3)CC2)C1=O)NCC(F)(F)F,,,pH 7.4,2.34
COC/C=C/c1cc(C2CC2c2ccc3c(c2)C(C(C)C)N(C)CC3)cc2ccc(C(=N)N)cc12.O=C(O)C(F)(F)F.O=C(O)C(F)(F)F (centres unmarked),,octanol/buffer,"67 µM, pH 7.4",0.17
CC(C)(C)c1cc(-c2ccc3cccnc3n2)nc(-c2ccc3cccnc3n2)c1.COc1ccncc1.[Cl-].[Cl-].[Ru+2].c1ccc2cc3nc4c5cccnc5c5ncccc5c4nc3cc2c1,,1-octanol/PBS,pH 7.4,-0.32 ± 0.017
